Assay results from different studies.
Numbered parts are unrelated; each lists some results of a single study.

Series 1 — technique: RNA Bind-n-Seq; form: RNA; medium: in vitro; concentration: 365 nM; baseline: no-protein control; reading: higher = stronger binding; endpoint: RBNS enrichment (R)
Target: RNA binding protein fox-1 homolog 2, RRM domain, GST-SBP tag (RBFOX2, Homo sapiens, UniProt O43251-10, residues 100-194)
Setting: natural RNA segment, single round, ends assumed
Shared flanks, not repeated: GGGAGUUCUACAGUCCGACGAUC … UGGAAUUCUCGGGUGCCAA
Target sequence (chain): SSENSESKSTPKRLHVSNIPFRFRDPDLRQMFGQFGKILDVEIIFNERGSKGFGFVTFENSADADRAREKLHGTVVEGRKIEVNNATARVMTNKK
GCCUGAGCAGUACCAAGGUCUUACUGUCUCUAUUCCUUUCUCCAUGGCCUGCUUUGCCUGGGUUGUGGGGAAGGAGGAGGAGGGGGACCCUGGGGGUGUAUUAUAUAUAG: 0.832
AAUACCACAAUAUCGUUCCAUGCAUAUAUAACAUAUUAAUACUUGAUUUUGCUGAGCUGCAAAGGUAUCUGUCAUAAAAUAUGGUCCCCAGGAAAAGAAUCUCUGUGCUC: 0.684
AAUUCACAUUCCUUAUUCUGAGAAUUUGGCCCCAGCUGUUUGCCUUUGACUCCCUGACCUCCAGAGCCAGGGUUGUGCCUUAUUGUCCCAUCUGUGGGCCUCAUUCUGCC: 0.421
AGUCUGGGAGGACAUCUUUUUAUUUUUACAUGAAUCUUUAAACAAUUCUGUGAGCAGAGUUUCUAGCUGCUGGAUUGUUGUCUGUCUUUAUAGCAGGUCCCAGUGAACCA: 0.326
GUAGAGUCAGGAGGGCAGGCUAGAUGCUCAGCCACAAGACAGCCUUUACUGAAAAAGCUAUUGGACUCUUGCUCUUUCUAGCUCUGAACUAAUAAAUGUCUUAUCACGCU: 0.377
AUUUAGGUGUGGGCUGAUUGGACUCCAACAUCUUUUGUACUCUUUUCAUGCUUUAUGUUAUGUAGAAUUUGAGUUCAUGCUGAAUGCAUUCCAGCCAGUAAUUUAUAGCC: 0.731
ACUUAGCAGUGGGACCUCACUUUUACAAGCACUGCUCUAGAUAUACUUGAAGAAUUUAAUAGGUACAGAAGUUUAUUCUGGAUAAUAAAUAAAUAAGGAUCACACUGUAU: 0.521
AUCUGCACUUGCUCAUAGGCCGGUUCCUUUUAUUUGAAUAAUAAAUAAAGCUAGUUCUAUUGAAAUGAACCCUUCGGCACCCUCUGCUCUUUAUCACACAGUUGUUGGGU: 0.671
UUUGCCAAGAAGGAAGCUUUGGUUCCUUUUUCCCUAGGAAGAAGACAUUGUCUUGGAGAACACUUGGCUCGGAUGGAAAUGUUCUUGUUUUUUACAGCAUUGCUUCAGAG: 0.341

Series 2 — technique: RNA Bind-n-Seq; form: RNA; medium: in vitro; concentration: 20 nM; setting: 6-mer, flanks averaged, single round; with: 150 mM LiCl; baseline: input library; reading: higher = stronger binding; endpoint: 6-mer enrichment (R)
Target: TAR DNA-binding protein 43, full length, His tag (TARDBP, Homo sapiens, UniProt Q13148, residues 1-414)
UUGGCA: 1
AUCUGU: 0.922
CCUAAU: 0.922
ACGUGA: 0.89
ACGAAA: 0.819
GAGGAG: 1.19
UGGAAG: 1.09
CAUCUA: 0.828
GGUUCA: 0.916
GUCCCG: 0.952
UAUUAA: 0.985
UACUCU: 0.875
GGGCAU: 1.02
GCUCGG: 0.938
AGCGAU: 0.87
GGGGAC: 1.2
UUGUCA: 0.944
CAACUA: 0.824

Series 3 — technique: protein-binding microarray; form: double-stranded DNA, one strand shown; medium: in vitro; concentration: 0.8 µM; setting: whole 60-bp probe, no competitor; reading: higher = stronger binding; endpoint: fluorescence intensity; shared flanks, not repeated: … GTCTTGATTCGCTTGACGCTGCTG
Target: Centromere-binding protein 1, full length, N-terminal tag (CBF1, Saccharomyces cerevisiae, UniProt P17106, residues 1-351)
Sequence of UniProt P17106 (whole entry, looked up): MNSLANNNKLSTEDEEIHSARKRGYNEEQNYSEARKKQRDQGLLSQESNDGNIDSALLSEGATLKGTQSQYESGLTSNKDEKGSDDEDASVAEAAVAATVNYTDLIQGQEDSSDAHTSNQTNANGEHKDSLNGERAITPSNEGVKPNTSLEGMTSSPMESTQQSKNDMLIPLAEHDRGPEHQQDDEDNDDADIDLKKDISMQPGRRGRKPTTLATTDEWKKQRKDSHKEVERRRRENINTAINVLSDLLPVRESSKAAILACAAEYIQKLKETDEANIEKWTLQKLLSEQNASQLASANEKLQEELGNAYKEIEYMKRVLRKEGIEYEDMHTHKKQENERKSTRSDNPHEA
CTATTCACTTCAGCTGTCACCACCAGTTTTAGGTTC: 522 a.u.
CTACGGATCGCTTCGCACGTTTGTTTACAATTGTTC: 544 a.u.
CTATAATGTCCACGTGATGACATTTCAATCTGCTTC: 15300 a.u.
GAATGAAGTATTGCCCACGTTCGAAATATAAATTAG: 571 a.u.
GAAAGATATTTTTTCTTCGTGATTTTCTAGTCCTAG: 525 a.u.
CTAAATAGGCGCAATCACACTTAAACGTATACGTTC: 495 a.u.
GAAGCGGAGTTCCATCAGCTATGGTTCGGATATTAG: 505 a.u.
GAACGACTCCCAATACACGTTTTCTATTTTTAATAG: 572 a.u.
GAATCGCGATCTTTACACGTTCCACTAGTCAATTAG: 540 a.u.
GAACCAATTTTTATCATCGTGACACCAATCACTTAG: 975 a.u.
GAAATCGACGATGCACACGTTATTGATAAACATTAG: 623 a.u.
CTAGCAACTCTCTCCGTCATGACCACTACTCCGTTC: 520 a.u.
GAACGCTGTTACCTCCAGGTGATTGCTGTCTTTTAG: 504 a.u.
GAAGTAAGAGAATGTGACATCAATTGTTGTTGCTAG: 827 a.u.
CTATTTGCTGTTGATCACGTGATTCATAATTTTTTC: 48300 a.u.
GAAATTTTGATTACCATCAGCAAATGGATTTTCTAG: 529 a.u.
GAACCTACACCCCATCACCACTCACACAATAGTTAG: 524 a.u.
CTATTCCATAACACAAACGTGACGTGCAAATAATTC: 3110 a.u.
GAAAATATCTTTTGCAACATCAGAAGTGTCCGTTAG: 529 a.u.
CTACATATATATATACACGTTGGTACGATATGCTTC: 757 a.u.
CTACTCGGTGAAAATCACGAAAAACTTGACACTTTC: 511 a.u.
GAAATTAATCCGGGTGACGCAGCCTGGAATTTTTAG: 511 a.u.
GAATAAAACATAAACGTGATGCTTTTACCACGTTAG: 1750 a.u.
GAAAACTAATGTTTAGTGATGATGATGAAATAGTAG: 581 a.u.
CTATGACATTAATCCTACGTGACTTACACATATTTC: 743 a.u.

Series 4 — technique: RNA Bind-n-Seq; form: RNA; medium: in vitro; concentration: 100 nM; baseline: input RNA pool; reading: higher = stronger binding; endpoint: bound/input enrichment
Target: RING finger protein unkempt homolog, zinc fingers 1-6, SBP tag (UNK, Homo sapiens, UniProt Q9C0B0, residues 30-357)
Sequence of UniProt Q9C0B0 (30-357, looked up): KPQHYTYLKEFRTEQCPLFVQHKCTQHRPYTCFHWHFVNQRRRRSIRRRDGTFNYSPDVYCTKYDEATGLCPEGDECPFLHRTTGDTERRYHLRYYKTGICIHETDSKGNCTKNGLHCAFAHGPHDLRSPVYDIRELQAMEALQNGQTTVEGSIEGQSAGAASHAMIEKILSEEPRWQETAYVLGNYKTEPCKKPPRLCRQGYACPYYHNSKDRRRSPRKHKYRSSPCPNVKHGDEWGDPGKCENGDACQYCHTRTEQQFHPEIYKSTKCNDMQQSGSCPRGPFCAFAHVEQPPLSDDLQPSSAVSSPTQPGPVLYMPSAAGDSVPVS
Setting: RNA with constant flanks, vertebrate orthologous sites, ends assumed
Shared flanks, not repeated: GGGAGUUCUACAGUCCGACGAUC … CAACAGAGGAUUGAGCAUCA
CUUUUGUGUGAAAUAUGUCUACCCAGAGAAGUAUCACCUUAUAAAUAUUAUCAAAUAACUUAGCUAGAGUCUUCUUAGGUGUUAGAUUAUAUGUCAAGCAUUUAAGGUGAAUUUGAGAUG: 0.23 ratio
GAGGAUUAGGUUCGAUCCUUUACGUGUUAAAAAAGAAAGCGUAAAAACAUUUUUAAAACAUAGAAAAAUUCAGCAAACCAUUUUUAAAGUAGAAGAGGGUUUUAGGUAGCAAAACGUAUU: 1.1 ratio
AUAAUCACUCUAAUUGUAUUCUGAAUAAAGUGUAACAUUGUGUAGCCUUUUUGUAUAAAAUAGACAAAUAGAAAUGGUCCAAUUAGUUUCCUUUUUAAUAUGCUUAAAAUAAGCAGGUGG: 2.15 ratio
ACGCUUUGACGUGAAGAUAACCAUCUCCUUAUGACCCCCGACCGCAAGUGCCCCCGCCCCGUCUCCCGCCGUGCCCCUUCAAACACAGUUCUAGAAAUUAAAAGUAAAAAAAAAAGAAAA: 0.883 ratio
AGAACCUAAACUUAUAGCAAAAGAGCCAAGCAGUAGUUUUUUUGUAAAUGUAAAAAUAAUUAGAUCCAGACUUUGUUUCCUUCAAUUUUAAAAAUAAAAAAUACCUCAGUGCUAUGUUUU: 0.873 ratio
AACUAAAGGAGUUAGCAUCUUUAUUUUUGUAUCAAAGAUAAAGGUUAUUUUGGAAAUUAUUAGGAUUUUUACAUAACUCUGAAAUCUGUUGCUUUUGUAAACCAAUUGUUGGAUCUUAGG: 0.327 ratio
CUGUCUUCCAGGUUGGAGCUAGCGGAAAAGUCAUAGGAAUUGAUCACAUUAAAGAGCUAGUAGAUGACUCAAUAAAUAAUGUCAGAAAGGAUGAUCCAAUGCUCUUGUCUUCAGGGAGAG: 0.536 ratio
UUCAGGCACAACUGACUGGUCCACAGCAUUCCUUACAUAGUUAUCUUCCAAAUGCAAGUGUAGUUAAUUUUCAGGAAACAACUAGGCAGCCAUCUUUAUCCUGUAGCCCAAUAGGAGAUU: 2.09 ratio
CCGAAAGGCCAAAUUCCCUCCUCCCUUCUACUGCUUCUACCAACUGGAAGCACAGAAAACUAGAAUUACAUUUAUUUUGUUUUUUAAAAAUAUACGUUGAUUUCUUGUAACAUUCAGUAG: 0.808 ratio
GAGCUAAAGGAGUUAGCAUCUUUAUUUUUGUAUCAAAGAUAAAGGUUAUUUUGAAAUUAUUAGGAUUUUUACACAACUCUGAAAUCUGUUGCUUUUGUAAACAAAUUGUUUGAUCUUAGG: 0.68 ratio
GGAGCUUGUGUUUGGCUGCACCUGCAUCCUAAGCUGCUACAACCAGAAUAAAGAGUUUCCGAGCCUGCGUCUCGCUUAGGUGCAUGGGCGUGGGCUUGGCACACAGAGGGCGUGGAGCUG: 0.196 ratio

Excerpt of the above (series 3):
GAAAATATCTTTTGCAACATCAGAAGTGTCCGTTAG: 529 a.u.
GAAATCGACGATGCACACGTTATTGATAAACATTAG: 623 a.u.
GAAGTAAGAGAATGTGACATCAATTGTTGTTGCTAG: 827 a.u.
GAACCTACACCCCATCACCACTCACACAATAGTTAG: 524 a.u.
GAAATTAATCCGGGTGACGCAGCCTGGAATTTTTAG: 511 a.u.
CTATTCACTTCAGCTGTCACCACCAGTTTTAGGTTC: 522 a.u.
CTAAATAGGCGCAATCACACTTAAACGTATACGTTC: 495 a.u.
GAAAGATATTTTTTCTTCGTGATTTTCTAGTCCTAG: 525 a.u.
